Measured values gathered from unrelated publications.
A part holds a random share of what one study measured.

Block 1
Target: PABPC1L2, full length, GST fusion (mouse, UniProt A0ABA7IW68)
Technique: RNAcompete
Molecule type: RNA
Medium: in vitro
Tested at: 20 nM
Notes: 7-mer, probes averaged, single round
Relative to: mean of 7-mers
Reading: higher = stronger binding
Residues (chain): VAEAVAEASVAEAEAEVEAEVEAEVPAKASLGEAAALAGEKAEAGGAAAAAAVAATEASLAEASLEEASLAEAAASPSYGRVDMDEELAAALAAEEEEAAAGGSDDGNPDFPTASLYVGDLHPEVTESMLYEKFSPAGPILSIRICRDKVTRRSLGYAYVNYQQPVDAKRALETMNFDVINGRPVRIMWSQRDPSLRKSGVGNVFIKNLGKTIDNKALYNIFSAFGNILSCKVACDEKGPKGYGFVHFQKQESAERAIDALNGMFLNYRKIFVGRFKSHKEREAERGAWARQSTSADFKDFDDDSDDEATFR
Strand	7-mer Z-score
GUUUACA	-0.215
AGUUUUU	-0.353
AUCUGUA	-0.168

Block 2
Target: Sal-like protein 4, full length isoform B (SALL4, Homo sapiens, UniProt Q9UJQ4-2, residues 1-616)
Technique: universal PBM
Molecule type: double-stranded DNA, one strand shown
Medium: in vitro
Tested at: not given
Notes: 8-mer, flanks averaged, mean of replicates
Reading: higher = stronger binding
Residues (chain): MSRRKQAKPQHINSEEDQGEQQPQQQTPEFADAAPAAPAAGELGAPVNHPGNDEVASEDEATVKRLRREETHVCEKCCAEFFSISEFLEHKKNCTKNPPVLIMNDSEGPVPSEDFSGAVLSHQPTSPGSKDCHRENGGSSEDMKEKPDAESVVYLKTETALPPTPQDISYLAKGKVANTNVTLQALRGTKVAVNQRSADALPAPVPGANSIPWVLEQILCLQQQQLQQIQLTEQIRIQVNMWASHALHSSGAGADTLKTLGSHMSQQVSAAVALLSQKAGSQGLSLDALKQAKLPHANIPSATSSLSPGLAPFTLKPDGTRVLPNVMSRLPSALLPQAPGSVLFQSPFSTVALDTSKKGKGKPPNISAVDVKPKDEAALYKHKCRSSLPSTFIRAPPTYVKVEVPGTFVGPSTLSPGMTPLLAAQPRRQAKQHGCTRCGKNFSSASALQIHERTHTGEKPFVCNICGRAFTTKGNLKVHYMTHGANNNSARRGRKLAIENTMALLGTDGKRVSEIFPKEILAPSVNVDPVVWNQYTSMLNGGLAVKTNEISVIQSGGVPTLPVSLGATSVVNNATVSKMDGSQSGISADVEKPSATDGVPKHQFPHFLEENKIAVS
Strand	E-score
GGGAACAA	-0.0614
CTCGACCA	-0.173
AAATGTGG	0.149

Other studies, line by line
Substance	target	test	system	conditions	scale	measurement	result
ACACTAGG	Histone acetyltransferase KAT6A, winged helix 1, GST fusion (KAT6A, Homo sapiens, UniProt Q92794, residues 1-85)	protein binding microarray	double-stranded DNA, one strand shown, in vitro	not given, 8-mer, flanks averaged, mean of 2 arrays, mostly near background	relative to: not given, higher = stronger binding	E-score	0.0405
PhoQ, residues 284 288 289 292 302 303 ASVMEA	PhoP, residues 12 14 15 18 19 AQALL (Escherichia coli, UniProt P23836)	Sort-seq, measured: YFP reporter	E. coli	PhoQ-PhoP variant library, together with: 10 µM Mg2+	relative to: high Mg2+ state, higher = stronger signaling	fold induction	2.17
CATCTTCC	Histone acetyltransferase KAT6A, winged helix 2, GST fusion (KAT6A, Homo sapiens, UniProt Q92794, residues 85-181)	protein binding microarray	double-stranded DNA, one strand shown, in vitro	not given, 8-mer, flanks averaged, mean of 2 arrays, mostly near background	relative to: not given, higher = stronger binding	E-score	0.0685
